# Results gathered from unrelated publications.
# Amino acid sequences for entries named in this document (tags omitted). Residues count along the entry.
# UniProt P18031, 1-321 limits assumed: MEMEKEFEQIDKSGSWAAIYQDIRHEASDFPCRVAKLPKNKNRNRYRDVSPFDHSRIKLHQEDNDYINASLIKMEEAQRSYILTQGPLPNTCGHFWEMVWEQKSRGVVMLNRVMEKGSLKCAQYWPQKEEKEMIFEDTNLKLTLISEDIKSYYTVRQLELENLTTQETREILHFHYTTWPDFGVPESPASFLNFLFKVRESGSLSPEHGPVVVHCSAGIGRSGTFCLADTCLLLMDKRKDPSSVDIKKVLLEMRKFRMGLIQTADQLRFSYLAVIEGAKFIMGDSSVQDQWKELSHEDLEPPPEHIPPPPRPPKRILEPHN
# UniProt P61981, whole entry: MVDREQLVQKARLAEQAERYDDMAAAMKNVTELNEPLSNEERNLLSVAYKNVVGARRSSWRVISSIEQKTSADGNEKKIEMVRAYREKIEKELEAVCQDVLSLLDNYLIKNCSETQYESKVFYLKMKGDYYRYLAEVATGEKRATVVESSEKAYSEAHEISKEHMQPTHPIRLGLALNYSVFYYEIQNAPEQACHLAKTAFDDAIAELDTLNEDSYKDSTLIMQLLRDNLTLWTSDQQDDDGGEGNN
# UniProt O60704, 25-377 limits assumed: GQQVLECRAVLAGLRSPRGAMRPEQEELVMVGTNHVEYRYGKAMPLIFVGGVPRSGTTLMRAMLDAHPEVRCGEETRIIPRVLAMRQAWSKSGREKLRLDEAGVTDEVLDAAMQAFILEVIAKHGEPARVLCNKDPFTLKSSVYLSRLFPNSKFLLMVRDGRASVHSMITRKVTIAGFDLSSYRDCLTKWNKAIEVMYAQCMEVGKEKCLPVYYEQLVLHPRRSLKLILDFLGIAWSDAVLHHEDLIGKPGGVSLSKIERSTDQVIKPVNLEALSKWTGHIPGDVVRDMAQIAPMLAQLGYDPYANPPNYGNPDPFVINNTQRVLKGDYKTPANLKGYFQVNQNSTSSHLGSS
# UniProt P12821, 30-1306 limits assumed: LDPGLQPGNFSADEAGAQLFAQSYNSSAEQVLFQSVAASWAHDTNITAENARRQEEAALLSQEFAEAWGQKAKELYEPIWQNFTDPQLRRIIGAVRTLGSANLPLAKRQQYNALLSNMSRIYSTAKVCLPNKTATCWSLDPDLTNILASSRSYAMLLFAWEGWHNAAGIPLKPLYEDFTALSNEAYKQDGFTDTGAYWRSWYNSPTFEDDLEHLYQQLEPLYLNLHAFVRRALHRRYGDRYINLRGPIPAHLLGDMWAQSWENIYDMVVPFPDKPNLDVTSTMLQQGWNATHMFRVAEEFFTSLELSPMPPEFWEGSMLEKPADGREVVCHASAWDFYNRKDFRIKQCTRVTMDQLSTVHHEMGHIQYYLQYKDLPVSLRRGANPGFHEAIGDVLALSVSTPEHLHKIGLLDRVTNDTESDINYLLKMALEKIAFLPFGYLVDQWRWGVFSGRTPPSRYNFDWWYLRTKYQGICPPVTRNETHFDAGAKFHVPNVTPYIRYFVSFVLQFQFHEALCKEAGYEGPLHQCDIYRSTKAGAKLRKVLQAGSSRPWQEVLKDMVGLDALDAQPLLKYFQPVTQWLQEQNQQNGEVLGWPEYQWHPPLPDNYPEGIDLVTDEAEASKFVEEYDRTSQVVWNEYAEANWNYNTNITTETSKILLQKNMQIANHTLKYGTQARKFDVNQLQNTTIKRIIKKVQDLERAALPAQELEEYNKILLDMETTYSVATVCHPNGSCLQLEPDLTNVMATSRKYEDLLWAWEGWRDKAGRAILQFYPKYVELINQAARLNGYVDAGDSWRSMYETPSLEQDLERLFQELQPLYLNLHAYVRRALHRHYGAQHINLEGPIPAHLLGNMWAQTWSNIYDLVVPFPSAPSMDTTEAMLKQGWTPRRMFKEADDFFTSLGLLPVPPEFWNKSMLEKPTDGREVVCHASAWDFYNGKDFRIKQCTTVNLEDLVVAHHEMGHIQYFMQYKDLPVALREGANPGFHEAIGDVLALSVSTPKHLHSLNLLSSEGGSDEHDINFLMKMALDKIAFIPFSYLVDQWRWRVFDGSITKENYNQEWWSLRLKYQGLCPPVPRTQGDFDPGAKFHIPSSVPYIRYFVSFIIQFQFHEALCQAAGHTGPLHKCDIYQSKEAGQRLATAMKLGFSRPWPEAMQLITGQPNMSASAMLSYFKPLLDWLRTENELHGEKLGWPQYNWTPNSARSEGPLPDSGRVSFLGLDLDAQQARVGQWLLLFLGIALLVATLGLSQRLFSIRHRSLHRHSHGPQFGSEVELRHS
# UniProt P16083, whole entry: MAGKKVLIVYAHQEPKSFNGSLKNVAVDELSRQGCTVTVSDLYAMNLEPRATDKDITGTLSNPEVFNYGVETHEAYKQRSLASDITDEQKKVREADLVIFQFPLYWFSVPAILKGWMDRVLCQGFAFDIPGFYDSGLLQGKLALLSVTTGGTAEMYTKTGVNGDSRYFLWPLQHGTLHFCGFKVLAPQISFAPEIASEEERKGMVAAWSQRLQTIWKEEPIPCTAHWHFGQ
# UniProt O15151, 23-111 limits assumed: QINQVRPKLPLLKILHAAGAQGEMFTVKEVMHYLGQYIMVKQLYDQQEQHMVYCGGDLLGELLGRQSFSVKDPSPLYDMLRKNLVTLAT
# UniProt Q06850, whole entry: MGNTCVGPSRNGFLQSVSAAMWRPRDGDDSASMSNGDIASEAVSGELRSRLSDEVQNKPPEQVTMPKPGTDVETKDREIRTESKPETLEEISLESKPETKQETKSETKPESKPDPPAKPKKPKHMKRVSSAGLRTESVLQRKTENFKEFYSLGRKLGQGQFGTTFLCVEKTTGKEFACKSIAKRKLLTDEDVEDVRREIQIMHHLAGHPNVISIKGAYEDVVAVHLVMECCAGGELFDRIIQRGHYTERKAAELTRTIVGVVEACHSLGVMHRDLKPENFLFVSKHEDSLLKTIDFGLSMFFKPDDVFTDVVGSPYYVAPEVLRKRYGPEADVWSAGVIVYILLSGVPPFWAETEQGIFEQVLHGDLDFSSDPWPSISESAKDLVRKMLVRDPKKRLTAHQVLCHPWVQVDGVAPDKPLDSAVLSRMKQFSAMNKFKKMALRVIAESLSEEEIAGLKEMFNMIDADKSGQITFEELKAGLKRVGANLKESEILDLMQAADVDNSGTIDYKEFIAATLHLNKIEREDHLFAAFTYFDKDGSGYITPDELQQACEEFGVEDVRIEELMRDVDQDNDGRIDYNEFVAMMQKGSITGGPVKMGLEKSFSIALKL
# UniProt Q99250, whole entry: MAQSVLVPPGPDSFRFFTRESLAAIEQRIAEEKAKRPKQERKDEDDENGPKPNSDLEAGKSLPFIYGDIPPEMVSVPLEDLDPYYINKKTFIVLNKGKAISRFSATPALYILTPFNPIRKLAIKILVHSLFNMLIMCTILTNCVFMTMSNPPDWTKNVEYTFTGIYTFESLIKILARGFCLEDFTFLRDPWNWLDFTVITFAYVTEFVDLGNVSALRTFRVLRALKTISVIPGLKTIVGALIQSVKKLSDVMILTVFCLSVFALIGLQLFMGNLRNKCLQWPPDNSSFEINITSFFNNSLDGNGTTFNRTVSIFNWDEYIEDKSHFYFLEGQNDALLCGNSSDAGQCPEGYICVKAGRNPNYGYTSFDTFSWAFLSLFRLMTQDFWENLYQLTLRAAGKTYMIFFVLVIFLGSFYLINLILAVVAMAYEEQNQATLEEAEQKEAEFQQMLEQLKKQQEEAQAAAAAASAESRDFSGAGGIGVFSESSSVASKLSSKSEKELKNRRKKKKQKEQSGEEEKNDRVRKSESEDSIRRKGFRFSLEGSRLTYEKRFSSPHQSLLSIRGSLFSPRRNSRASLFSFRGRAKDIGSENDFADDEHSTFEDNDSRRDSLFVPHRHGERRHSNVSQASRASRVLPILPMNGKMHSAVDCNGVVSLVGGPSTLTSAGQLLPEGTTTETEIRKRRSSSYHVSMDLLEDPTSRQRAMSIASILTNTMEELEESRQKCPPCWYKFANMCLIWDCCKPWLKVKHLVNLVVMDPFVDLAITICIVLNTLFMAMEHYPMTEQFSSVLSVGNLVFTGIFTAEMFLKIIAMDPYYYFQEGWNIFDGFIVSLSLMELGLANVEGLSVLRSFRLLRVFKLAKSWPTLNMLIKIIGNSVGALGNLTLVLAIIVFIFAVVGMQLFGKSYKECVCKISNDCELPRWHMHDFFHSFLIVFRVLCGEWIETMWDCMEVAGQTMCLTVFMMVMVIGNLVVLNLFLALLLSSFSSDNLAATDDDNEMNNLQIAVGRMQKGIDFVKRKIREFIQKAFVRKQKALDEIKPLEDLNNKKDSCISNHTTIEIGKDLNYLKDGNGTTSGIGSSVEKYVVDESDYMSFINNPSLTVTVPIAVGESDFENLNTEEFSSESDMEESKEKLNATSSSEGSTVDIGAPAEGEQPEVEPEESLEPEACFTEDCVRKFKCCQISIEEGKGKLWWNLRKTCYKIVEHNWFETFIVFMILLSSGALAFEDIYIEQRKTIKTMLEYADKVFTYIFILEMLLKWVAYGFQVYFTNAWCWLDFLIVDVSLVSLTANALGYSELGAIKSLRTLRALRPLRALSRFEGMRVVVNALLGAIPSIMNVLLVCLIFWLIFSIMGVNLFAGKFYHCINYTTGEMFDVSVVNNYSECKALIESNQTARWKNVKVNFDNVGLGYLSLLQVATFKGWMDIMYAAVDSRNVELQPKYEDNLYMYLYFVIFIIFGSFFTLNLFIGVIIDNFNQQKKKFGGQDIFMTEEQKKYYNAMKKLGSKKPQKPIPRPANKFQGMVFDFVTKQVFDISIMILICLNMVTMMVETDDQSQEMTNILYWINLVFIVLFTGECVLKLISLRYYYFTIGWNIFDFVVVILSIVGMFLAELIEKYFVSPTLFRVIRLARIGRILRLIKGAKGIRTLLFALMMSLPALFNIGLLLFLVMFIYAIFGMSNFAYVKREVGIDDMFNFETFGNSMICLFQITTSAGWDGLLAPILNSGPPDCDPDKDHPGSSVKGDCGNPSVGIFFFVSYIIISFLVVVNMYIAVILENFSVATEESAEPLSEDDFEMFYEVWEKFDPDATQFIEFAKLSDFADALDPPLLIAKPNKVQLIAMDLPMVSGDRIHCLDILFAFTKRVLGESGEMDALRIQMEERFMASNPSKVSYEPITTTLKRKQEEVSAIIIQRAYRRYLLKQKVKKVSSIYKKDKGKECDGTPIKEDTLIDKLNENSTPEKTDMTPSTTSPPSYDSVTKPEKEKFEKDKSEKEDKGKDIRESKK
# UniProt P48729, whole entry: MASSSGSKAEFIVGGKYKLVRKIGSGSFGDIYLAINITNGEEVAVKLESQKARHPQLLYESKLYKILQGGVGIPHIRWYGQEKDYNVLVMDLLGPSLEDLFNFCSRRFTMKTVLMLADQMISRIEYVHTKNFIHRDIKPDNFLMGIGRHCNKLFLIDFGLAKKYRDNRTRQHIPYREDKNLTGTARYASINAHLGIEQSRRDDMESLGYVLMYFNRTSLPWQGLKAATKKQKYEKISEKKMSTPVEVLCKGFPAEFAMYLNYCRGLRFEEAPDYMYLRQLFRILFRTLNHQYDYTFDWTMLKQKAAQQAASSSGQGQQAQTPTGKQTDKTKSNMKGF
# UniProt Q16539, whole entry: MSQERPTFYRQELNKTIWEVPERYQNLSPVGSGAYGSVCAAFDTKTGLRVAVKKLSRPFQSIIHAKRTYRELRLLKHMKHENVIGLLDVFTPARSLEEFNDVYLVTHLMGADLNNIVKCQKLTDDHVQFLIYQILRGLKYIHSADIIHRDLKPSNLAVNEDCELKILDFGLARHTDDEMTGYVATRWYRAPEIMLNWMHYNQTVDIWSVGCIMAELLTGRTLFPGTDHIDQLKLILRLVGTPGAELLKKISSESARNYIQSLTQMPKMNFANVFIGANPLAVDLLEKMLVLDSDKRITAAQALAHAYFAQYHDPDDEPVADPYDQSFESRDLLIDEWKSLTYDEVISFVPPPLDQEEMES
# Protocols differ between the studies behind these lines. Several values in a cell are separate wells, animals, samples, runs or records. ± marks the error that the study gave.
# PTPN1: Tyrosine-protein phosphatase non-receptor type 1 (PTPN1, Homo sapiens, UniProt P18031)
Compound,target or system,test,system,setting,how to read,endpoint,result
CC[C@H](C)[C@H](NC(=O)[C@H](CCCCN)NC(=O)[C@H](CCCNC(=N)N)NC(=O)[C@H](CCCCN)NC(C)=O)C(=O)N[C@@H](CC(C)C)C(=O)N[C@@H](CO)C(=O)N[C@@H](COP(=O)(O)O)C(=O)N[C@@H](CC(=O)O)C(=O)N[C@@H](CC(=O)O)C(=O)N[C@@H](CO)C(=O)N[C@@H](CC(C)C)C(=O)N[C@@H](CCCNC(=N)N)C(=O)N[C@@H](CO)C(N)=O,"YWHAG (Homo sapiens, UniProt P61981)",isothermal titration calorimetry,,37 °C,,TΔS,-0.8 kcal/mol
CC[C@H](C)[C@H](NC(=O)[C@H](CC(=O)O)NC(=O)[C@@H]1CCCN1C(=O)[C@H](Cc1ccc(O)cc1)NC(=O)[C@H](Cc1ccc(O)cc1)NC(=O)[C@H](Cc1ccc(OS(=O)(=O)O)cc1)NC(=O)[C@H](CC(=O)O)NC(=O)[C@@H](NC(=O)[C@@H](N)C(C)C)[C@@H](C)O)C(=O)O,"Protein-tyrosine sulfotransferase 2 (Homo sapiens, UniProt O60704)","sulfation of compound, substrate, LC-MS initial velocity",,"pH 7.5, 30 °C, reaction 2",,Vmax,1.8 mU/mg protein
COc1ccc2c(CC(=O)N[C@@H](CCCNC(=N)N)C(=O)N3CCC[C@H]3C(=O)N3CCC[C@H]3C(=O)NCC(=O)N[C@@H](Cc3ccccc3)C(=O)N[C@@H](CO)C(=O)N[C@@H](C)C(=O)N[C@@H](Cc3ccccc3)C(=O)N[C@@H](CCCCNc3ccc([N+](=O)[O-])cc3[N+](=O)[O-])C(=O)O)cc(=O)oc2c1,"ACE (Homo sapiens, UniProt P12821)",substrate,,together with: 5 to 75 µM,,Vmax,395 ± 70 AFU/min/µg protein
CC(C)C[C@H](NC(=O)[C@@H](NC(=O)[C@H](CC(C)C)NC(=O)[C@H](CS)NC(=O)CNS(=O)(=O)c1cccc2c(N(C)C)cccc12)C(C)C)C(=O)O,"geranylgeranyltransferase type-I (Rattus norvegicus, UniProt P53610+Q04631)","substrate, fluorescence",,"30 °C, GGPP 10 µM/enzyme 10 nM, together with: GDP 30 µM",,kcat,0.052 ± 0.013 s⁻¹
CC(=O)NCCCC[C@H](NC(=O)[C@H](CCCCNC(C)=O)NC(=O)[C@H](Cc1c[nH]cn1)NC(=O)[C@H](CCCNC(=N)N)NC(C)=O)C(=O)Nc1ccc2c(C)cc(=O)oc2c1,"HDAC6 (Homo sapiens, UniProt Q9UBN7)","deacetylation, substrate",,"25 °C, together with: 10 to 50 nM enzyme",,kcat/KM,17000 ± 5000 M⁻¹ s⁻¹
CN(C)CCNC(=O)c1cccc2ccc(-c3ccc(-c4ccccc4)cc3)nc12,"NQO2 (Homo sapiens, UniProt P16083)",from IC50 by Cheng-Prusoff,,,,binding free energy,-9.87 kcal/mol
COc1cccc([C@@H]2N=C(c3ccc(OC)cc3OC(C)C)N(C(=O)N3CCNC(=O)C3)[C@@H]2c2ccc(Cl)cc2)c1 (relative stereo),"Protein Mdm4 (MDM4, Homo sapiens, UniProt O15151)",isothermal titration calorimetry,,"concentration not given, 298 K",,binding stoichiometry,1 ± 0.2
C=C(C)C(=O)Nc1ccc(-c2c(-c3ccc(Oc4nccc(C)n4)c(F)c3)c3c(N)ncnc3n2C)cc1,MFE-280,"cell growth, CellTiter-Glo",,120 h,,IC50,419 nM
CC[C@H](C)[C@H](NC(=O)[C@H](CCCNC(=N)N)NC(=O)[C@H](CO)NC(=O)[C@@H](NC(=O)[C@@H](NC(=O)[C@H](CCCCN)NC(=O)[C@@H](N)C(C)C)[C@@H](C)CC)[C@@H](C)CC)C(=O)N[C@@H](Cc1ccccc1)C(=O)N[C@@H](CO)C(=O)N[C@@H](CCC(N)=O)C(=O)N[C@@H](CCCNC(=N)N)C(=O)N[C@@H](CO)C(=O)N[C@@H](Cc1ccccc1)C(=O)N[C@@H](CCCNC(=N)N)C(=O)N[C@@H](CCCNC(=N)N)C(=O)O,"CPK1 (Arabidopsis thaliana, UniProt Q06850)","peptide phosphorylation, substrate, scintillation proximity",,"20 µM, 24 min, together with: 10 µM ATP","relative to: no peptide control, higher = more phosphorylation",relative phosphorylation,20 fold
CCOC(=O)c1c(-c2ccc(Cl)cc2Cl)n(-c2nc(-c3ccc(Cl)cc3)c3c(NC(=O)c4ccccc4)nnc-3[nH]2)[nH]c1=O,SK-MEL-5,SRB,,10 µM,,cell growth,-98.6%
NC12CC3CC(F)(CC(C1)c1ccccc13)C2,"Glutamate NMDA receptor; Grin1/Grin2a (Grin1/Grin2a, Rattus norvegicus, UniProt P35439+Q00959)","ion current, channel blocker, whole-cell patch clamp",tsA201,"10 µM, -60 mV, together with: 100 µM NMDA, 10 µM glycine",,inhibition,69.1 ± 1.2%
N#Cc1c(-c2ccc(Cl)cc2Cl)n(-c2nc(-c3ccc(Cl)cc3)c3c(NC(=O)c4ccccc4)nnc-3[nH]2)[nH]c1=O,SK-MEL-28,SRB,,10 µM,,cell growth,53.8%
CC/C=C\C/C=C\CCC/C=C/C=C/C=C\CCCC(=O)O,"DNA polymerase alpha catalytic subunit (Bos taurus, UniProt A0A3Q1MF00)","enzyme activity, inhibitor",,,,IC50,> 100000 nM
CC(=O)N[C@@H](C)C(=O)N[C@@H](Cc1ccc(O)cc1)C(=O)N[C@H](C(=O)N[C@@H](CCC(=O)O)C(=O)N[C@@H](Cc1ccc(OP(=O)(O)O)cc1)C(=O)N[C@H](C(=O)N[C@@H](Cc1ccc(OP(=O)(O)O)cc1)C(=O)N[C@@H](C)C(=O)N[C@@H](C)C(N)=O)[C@@H](C)O)[C@@H](C)O,PTPN1,"substrate, continuous UV",,"pH 7.4, multiply phosphorylated peptides apparent",,Km,2.9 ± 0.5 µM
"CC(=O)C12NC(C)(C)CC1(C)C(=O)C1=C2c2c(c3c4n2C(C)(C)CC2=C4C4(CC(C)(C)NC(C)(C4)C2=O)CC3(C)C)C(=O)C(C)(C)N1 (single isomer, unassigned)","SCN2A (Homo sapiens, UniProt Q99250)",sodium current,,1 µM,,inhibition,5 ± 0.04%
CC(=O)N[C@@H](C)C(=O)N[C@@H](Cc1ccc(OP(=O)(O)O)cc1)C(=O)N[C@@H](Cc1ccc(OP(=O)(O)O)cc1)C(=O)N[C@@H](Cc1c[nH]c2ccccc12)C(=O)N[C@H](C(=O)N[C@@H](C)C(=O)N[C@@H](Cc1ccc(OP(=O)(O)O)cc1)C(=O)N[C@@H](C)C(=O)N[C@@H](C)C(N)=O)[C@@H](C)O,PTPN1,"substrate, continuous UV",,"pH 7.4, multiply phosphorylated peptides apparent",,Km,1.7 ± 0.2 µM
Cc1ccc(-c2n[nH]cc2-c2ccnc3ccccc23)nc1,"CSNK1A1 (Homo sapiens, UniProt P48729)",,,,relative to: IC50 CSNK1A1 over IC50 Yck2,selectivity ratio,> 3
CC(=O)N[C@@H](C)C(=O)N[C@@H](Cc1ccc(OP(=O)(O)O)cc1)C(=O)N[C@@H](Cc1ccc(O)cc1)C(=O)N[C@@H](C)C(=O)N[C@@H](CCC(=O)O)C(=O)N[C@@H](CO)C(=O)N[C@@H](Cc1ccc(OP(=O)(O)O)cc1)C(=O)N[C@@H](C)C(=O)N[C@@H](C)C(N)=O,PTPN1,"substrate, continuous UV",,"pH 7.4, multiply phosphorylated peptides apparent",,Km,3.1 ± 0.4 µM
CC(C)C[C@H](NC(=O)[C@H](C)NC(=O)[C@H](CCCNC(=N)N)NC(=O)[C@H](CCCNC(=N)N)NC(=O)[C@H](CCCNC(=N)N)NC(=O)[C@H](C)NC(=O)[C@H](CC(C)C)NC(=O)[C@H](CCCNC(=N)N)NC(=O)[C@H](CO)NC(=O)[C@H](CCCCN)NC(=O)[C@H](CO)NC(=O)Cn1cc(COC(=O)[C@]2(C)C=C(C(=O)OC(C)(C)C)C(=O)CC2)nn1)C(=O)O,"MAPK14 (Homo sapiens, UniProt Q16539)","enzyme activity, inhibitor, D-SENSOR kinase",,"0.01016 µM, unit not given",relative to: untreated,remaining activity,0.851 and 1.01 and 1.03

# Repeated from above:
Compound,target or system,test,system,setting,how to read,endpoint,result
CC(=O)N[C@@H](C)C(=O)N[C@@H](Cc1ccc(O)cc1)C(=O)N[C@H](C(=O)N[C@@H](CCC(=O)O)C(=O)N[C@@H](Cc1ccc(OP(=O)(O)O)cc1)C(=O)N[C@H](C(=O)N[C@@H](Cc1ccc(OP(=O)(O)O)cc1)C(=O)N[C@@H](C)C(=O)N[C@@H](C)C(N)=O)[C@@H](C)O)[C@@H](C)O,PTPN1,"substrate, continuous UV",,"pH 7.4, multiply phosphorylated peptides apparent",,Km,2.9 ± 0.5 µM
"CC(=O)C12NC(C)(C)CC1(C)C(=O)C1=C2c2c(c3c4n2C(C)(C)CC2=C4C4(CC(C)(C)NC(C)(C4)C2=O)CC3(C)C)C(=O)C(C)(C)N1 (single isomer, unassigned)","SCN2A (Homo sapiens, UniProt Q99250)",sodium current,,1 µM,,inhibition,5 ± 0.04%
